Measurements pooled from the literature.
Each numbered part is a random draw from the data of one study; scales do not carry over between parts. Substitutions count along the parent as printed.

Study 1
Target: Histone acetyltransferase KAT6A, both winged helices, GST fusion (KAT6A, Homo sapiens, UniProt Q92794, residues 1-181)
Method: protein binding microarray
Form: double-stranded DNA, one strand shown
Sample: in vitro
Tested at: not given
Notes: 8-mer, flanks averaged, mean of 2 arrays, mostly near background
Baseline: not given
Reading: higher = stronger binding
Target sequence (chain): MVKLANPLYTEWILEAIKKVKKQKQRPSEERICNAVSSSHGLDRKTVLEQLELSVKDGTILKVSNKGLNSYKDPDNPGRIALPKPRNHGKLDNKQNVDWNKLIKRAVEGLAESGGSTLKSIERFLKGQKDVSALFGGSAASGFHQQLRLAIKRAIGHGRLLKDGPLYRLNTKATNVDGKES
With `GGCGATCA` the E-score was 0.127.
With `CAATAGTC` the E-score was -0.159.
`GCAGAATA` has an E-score of -0.105.
For `AGGGAAGG`, the E-score was -0.219.
`CAAGGAAG` has an E-score of -0.128.
With `GCAATGAA` the E-score was 0.0385.
`GCATGCGC` gave an E-score of 0.309.
The E-score of `CCCTCCGA` is reported as -0.0155.

Study 2
Target: Prothrombin, mature alpha-thrombin (F2, Homo sapiens, UniProt P00734)
Method: aptamer microarray, sandwich
Form: DNA with 2'F-ANA
Sample: in vitro
Tested at: 200 nM
Notes: whole 15-mer aptamer, many near background
Added: Cy3 exosite-II aptamer, 400 nM
Reading: higher = stronger binding
Oligonucleotide: GGTTGGTGTGGTTGG
Under “mean fluorescence intensity”, `2'F-ANA at 4 5 7 11 13` is recorded as 255 a.u.
`2'F-ANA at 1 3 5 7 8 11 15` — result for “mean fluorescence intensity”: 61.5 a.u.
`2'F-ANA at 1 5 7 9 10 12 13 15` — result for “mean fluorescence intensity”: 49.9 a.u.
`2'F-ANA at 2 4 7 8 9 10 13 14 15`: “mean fluorescence intensity” 70.3 a.u.
`2'F-ANA at 2 3 4 6 9 15`: “mean fluorescence intensity” 461 a.u.
For `2'F-ANA at 1 2 8 9 10 11 12 14`, “mean fluorescence intensity” read 98.8 a.u.
`2'F-ANA at 2 3 6 7 8 9 12 14 15` — result for “mean fluorescence intensity”: 419 a.u.
For `2'F-ANA at 1 2 3 5 6 7 10 14`, “mean fluorescence intensity” read 44 a.u.

Study 3
Target: UDP-N-acetylglucosamine--peptide N-acetylglucosaminyltransferase 110 kDa subunit (OGT, Homo sapiens, UniProt O15294)
Chain of UniProt O15294 (whole entry, looked up): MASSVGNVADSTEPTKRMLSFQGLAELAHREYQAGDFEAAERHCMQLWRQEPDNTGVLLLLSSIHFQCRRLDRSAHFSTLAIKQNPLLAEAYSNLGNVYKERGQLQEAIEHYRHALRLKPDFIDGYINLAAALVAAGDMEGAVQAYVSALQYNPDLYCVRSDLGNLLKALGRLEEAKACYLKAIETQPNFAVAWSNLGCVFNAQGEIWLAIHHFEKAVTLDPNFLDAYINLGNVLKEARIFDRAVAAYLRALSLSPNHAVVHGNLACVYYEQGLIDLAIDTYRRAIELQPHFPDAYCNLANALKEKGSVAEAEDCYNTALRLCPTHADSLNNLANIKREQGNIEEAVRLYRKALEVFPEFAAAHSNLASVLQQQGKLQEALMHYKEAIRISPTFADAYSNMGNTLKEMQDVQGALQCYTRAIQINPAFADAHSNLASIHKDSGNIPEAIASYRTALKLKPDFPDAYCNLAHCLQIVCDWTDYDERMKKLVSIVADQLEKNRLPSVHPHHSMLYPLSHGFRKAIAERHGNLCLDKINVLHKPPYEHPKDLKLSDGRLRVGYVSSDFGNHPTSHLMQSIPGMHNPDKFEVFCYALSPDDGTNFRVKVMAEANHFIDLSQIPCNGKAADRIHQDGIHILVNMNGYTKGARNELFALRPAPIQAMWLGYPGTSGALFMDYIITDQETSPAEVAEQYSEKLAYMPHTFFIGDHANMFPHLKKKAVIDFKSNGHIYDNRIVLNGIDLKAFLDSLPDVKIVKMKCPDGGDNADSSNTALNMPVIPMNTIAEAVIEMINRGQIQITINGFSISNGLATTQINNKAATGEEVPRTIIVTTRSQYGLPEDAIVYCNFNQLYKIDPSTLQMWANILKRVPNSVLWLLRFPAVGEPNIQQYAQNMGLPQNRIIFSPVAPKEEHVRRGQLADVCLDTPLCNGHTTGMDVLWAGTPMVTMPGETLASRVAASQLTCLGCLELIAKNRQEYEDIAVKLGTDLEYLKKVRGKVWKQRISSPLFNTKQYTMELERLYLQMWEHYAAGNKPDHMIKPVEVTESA
Effect on: binding
Method: phage display NGS
Form: peptide
Tested at: concentration not given
Baseline: input library
`FMHHQHVESPVHTYI` — result for “enrichment fold change”: 2.77.
For `QIHQMRHHAPHTRVP`, “enrichment fold change” read 4.06.
`QLFPPVYIMKLDSQ`: “enrichment fold change” 12.2.
`NIMPAYQIMYPANFR`: “enrichment fold change” 25.2.
`EALFRYTPFYQIDI` — result for “enrichment fold change”: 13.6.
For `QHSQHVHFTHRGEGH`, “enrichment fold change” read 5.95.
Under “enrichment fold change”, `WMQHATHDTHNIILV` is recorded as 9.15.
`HLTHRHSYIKADHSL`: “enrichment fold change” 8.08.
Under “enrichment fold change”, `HYHPNHHGSYSLRN` is recorded as 7.08.
`HRHGWQIHLNDGVW`: “enrichment fold change” 3.05.
For `HVDTWHMSHHNYTH`, “enrichment fold change” read 6.92.
`HTAIMNRHQYHMHVN`: “enrichment fold change” 4.18.
`STYTPFYPIKFWANR` — result for “enrichment fold change”: 1.66.
`GLWPHHDHTHPSTEA` — result for “enrichment fold change”: 12.5.
`HSYHHDTVITHNTHH`: “enrichment fold change” 7.56.
For `RSFATTSYPPVYQIF`, “enrichment fold change” read 4.18.
`HSSDIPEHRHHEHIR` — result for “enrichment fold change”: 11.2.
`THMHFTDHVNHETHL` — result for “enrichment fold change”: 3.08.

Study 4
Target: CCNE2, cyclin fold, Cln2 fusion (human)
Method: yeast growth competition, sequencing
Sample: yeast
Notes: strong parent motif
Baseline: not given
Reading: higher = stronger binding
Parent: viral docking peptide; TSVRRALFTGGSD
For `S2T`, “normalised enrichment score” read 4.21.
Under “normalised enrichment score”, `S12E` is recorded as 4.45.
For `R5V`, “normalised enrichment score” read 0.312.
`T9Y` — result for “normalised enrichment score”: 2.21.
Under “normalised enrichment score”, `S12V` is recorded as 3.9.
For `A6I`, “normalised enrichment score” read 4.51.
`T9Q` — result for “normalised enrichment score”: 4.2.
Under “normalised enrichment score”, `V3Y` is recorded as 2.03.
Under “normalised enrichment score”, `L7M` is recorded as 0.295.
Under “normalised enrichment score”, `R4M` is recorded as 0.866.
Under “normalised enrichment score”, `A6N` is recorded as 3.31.
`V3H` — result for “normalised enrichment score”: 1.83.
For `S2G`, “normalised enrichment score” read 4.48.
Under “normalised enrichment score”, `S2A` is recorded as 2.58.
`S12H` — result for “normalised enrichment score”: 3.57.
`S12Y`: “normalised enrichment score” 4.06.
`S2D` — result for “normalised enrichment score”: 2.38.
`V3I` — result for “normalised enrichment score”: 1.32.
Under “normalised enrichment score”, `R4K` is recorded as 3.54.
`S12I`: “normalised enrichment score” 3.79.

For quick reference, copied from above (study 2):
For `2'F-ANA at 1 2 3 5 6 7 10 14`, “mean fluorescence intensity” read 44 a.u.
`2'F-ANA at 2 3 6 7 8 9 12 14 15` — result for “mean fluorescence intensity”: 419 a.u.
`2'F-ANA at 1 3 5 7 8 11 15` — result for “mean fluorescence intensity”: 61.5 a.u.
`2'F-ANA at 2 3 4 6 9 15`: “mean fluorescence intensity” 461 a.u.
Under “mean fluorescence intensity”, `2'F-ANA at 4 5 7 11 13` is recorded as 255 a.u.
For `2'F-ANA at 1 2 8 9 10 11 12 14`, “mean fluorescence intensity” read 98.8 a.u.
`2'F-ANA at 2 4 7 8 9 10 13 14 15`: “mean fluorescence intensity” 70.3 a.u.
